Experimental data of several laboratories.
Every numbered part comes from another study and shows a few of its results, in no order. Several values in a cell are separate wells, animals, samples, runs or records.
Sequence of UniProt O43318 (whole entry, looked up): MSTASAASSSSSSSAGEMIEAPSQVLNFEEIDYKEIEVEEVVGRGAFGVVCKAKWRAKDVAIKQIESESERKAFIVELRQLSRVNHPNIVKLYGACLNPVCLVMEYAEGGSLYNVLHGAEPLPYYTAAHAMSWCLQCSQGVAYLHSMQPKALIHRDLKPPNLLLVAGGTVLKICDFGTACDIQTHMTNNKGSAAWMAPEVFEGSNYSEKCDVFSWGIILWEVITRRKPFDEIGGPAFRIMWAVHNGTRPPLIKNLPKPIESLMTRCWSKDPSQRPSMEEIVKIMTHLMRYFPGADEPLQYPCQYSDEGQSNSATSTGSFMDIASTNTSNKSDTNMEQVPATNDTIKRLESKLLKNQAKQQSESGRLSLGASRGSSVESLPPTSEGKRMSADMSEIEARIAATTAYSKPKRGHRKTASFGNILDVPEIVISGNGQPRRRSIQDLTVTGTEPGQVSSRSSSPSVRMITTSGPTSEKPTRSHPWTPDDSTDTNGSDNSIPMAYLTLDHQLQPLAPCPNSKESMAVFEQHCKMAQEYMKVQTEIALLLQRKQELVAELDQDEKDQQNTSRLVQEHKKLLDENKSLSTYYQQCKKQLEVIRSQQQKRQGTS
Sequence of UniProt Q9BUB5 (whole entry, looked up): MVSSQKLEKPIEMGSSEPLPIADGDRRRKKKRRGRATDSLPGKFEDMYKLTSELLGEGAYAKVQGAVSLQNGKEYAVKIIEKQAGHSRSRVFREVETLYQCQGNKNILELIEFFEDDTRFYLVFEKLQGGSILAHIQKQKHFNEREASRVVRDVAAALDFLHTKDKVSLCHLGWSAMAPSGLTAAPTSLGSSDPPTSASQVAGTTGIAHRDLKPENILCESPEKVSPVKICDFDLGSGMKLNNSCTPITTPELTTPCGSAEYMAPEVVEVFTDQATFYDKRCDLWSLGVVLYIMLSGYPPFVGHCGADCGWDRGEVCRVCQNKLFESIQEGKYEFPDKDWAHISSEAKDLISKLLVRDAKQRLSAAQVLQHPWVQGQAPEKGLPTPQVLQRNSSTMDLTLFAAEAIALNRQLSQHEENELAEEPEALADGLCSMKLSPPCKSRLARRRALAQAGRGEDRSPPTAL
Sequence of UniProt O00141 (whole entry, looked up): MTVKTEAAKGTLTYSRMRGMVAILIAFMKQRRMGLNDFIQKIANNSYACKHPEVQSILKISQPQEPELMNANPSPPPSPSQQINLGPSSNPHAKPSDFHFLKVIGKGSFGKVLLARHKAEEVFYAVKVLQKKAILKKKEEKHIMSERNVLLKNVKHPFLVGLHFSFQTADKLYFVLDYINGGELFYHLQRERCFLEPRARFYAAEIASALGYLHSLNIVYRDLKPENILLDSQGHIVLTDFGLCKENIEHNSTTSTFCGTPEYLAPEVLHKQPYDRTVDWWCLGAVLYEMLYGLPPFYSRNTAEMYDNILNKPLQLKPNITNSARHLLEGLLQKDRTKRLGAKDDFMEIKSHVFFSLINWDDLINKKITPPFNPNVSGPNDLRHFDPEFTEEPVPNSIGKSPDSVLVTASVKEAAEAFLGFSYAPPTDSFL
Sequence of UniProt Q6ZWH5 (whole entry, looked up): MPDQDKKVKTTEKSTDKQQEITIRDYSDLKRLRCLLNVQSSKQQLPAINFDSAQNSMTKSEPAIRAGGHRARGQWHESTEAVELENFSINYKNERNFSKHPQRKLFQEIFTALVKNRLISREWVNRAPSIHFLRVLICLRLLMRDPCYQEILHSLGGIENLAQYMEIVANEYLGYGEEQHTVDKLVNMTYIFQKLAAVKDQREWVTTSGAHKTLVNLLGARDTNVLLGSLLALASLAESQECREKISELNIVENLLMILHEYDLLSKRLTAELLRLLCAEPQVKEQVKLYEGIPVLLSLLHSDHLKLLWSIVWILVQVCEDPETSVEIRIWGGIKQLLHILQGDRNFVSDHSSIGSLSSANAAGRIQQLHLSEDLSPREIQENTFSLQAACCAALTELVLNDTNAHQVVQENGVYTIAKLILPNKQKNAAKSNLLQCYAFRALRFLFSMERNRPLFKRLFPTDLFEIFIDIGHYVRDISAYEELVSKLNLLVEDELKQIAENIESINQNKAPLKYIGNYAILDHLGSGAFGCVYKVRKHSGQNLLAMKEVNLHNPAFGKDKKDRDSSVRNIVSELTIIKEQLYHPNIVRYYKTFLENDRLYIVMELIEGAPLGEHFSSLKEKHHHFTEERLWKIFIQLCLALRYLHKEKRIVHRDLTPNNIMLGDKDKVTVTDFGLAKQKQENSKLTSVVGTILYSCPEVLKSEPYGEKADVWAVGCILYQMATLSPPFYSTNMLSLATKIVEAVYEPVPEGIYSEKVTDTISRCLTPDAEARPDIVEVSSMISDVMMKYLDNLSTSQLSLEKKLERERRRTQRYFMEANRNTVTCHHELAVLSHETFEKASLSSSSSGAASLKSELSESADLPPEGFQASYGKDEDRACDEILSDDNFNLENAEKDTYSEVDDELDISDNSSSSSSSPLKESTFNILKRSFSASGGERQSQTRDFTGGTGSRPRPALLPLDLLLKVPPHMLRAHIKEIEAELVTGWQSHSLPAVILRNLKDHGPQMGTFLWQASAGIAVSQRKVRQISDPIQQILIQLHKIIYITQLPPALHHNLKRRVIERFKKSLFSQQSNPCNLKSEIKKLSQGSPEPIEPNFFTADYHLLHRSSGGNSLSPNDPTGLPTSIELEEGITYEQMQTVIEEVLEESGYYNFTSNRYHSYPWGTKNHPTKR
Sequence of UniProt O43293 (whole entry, looked up): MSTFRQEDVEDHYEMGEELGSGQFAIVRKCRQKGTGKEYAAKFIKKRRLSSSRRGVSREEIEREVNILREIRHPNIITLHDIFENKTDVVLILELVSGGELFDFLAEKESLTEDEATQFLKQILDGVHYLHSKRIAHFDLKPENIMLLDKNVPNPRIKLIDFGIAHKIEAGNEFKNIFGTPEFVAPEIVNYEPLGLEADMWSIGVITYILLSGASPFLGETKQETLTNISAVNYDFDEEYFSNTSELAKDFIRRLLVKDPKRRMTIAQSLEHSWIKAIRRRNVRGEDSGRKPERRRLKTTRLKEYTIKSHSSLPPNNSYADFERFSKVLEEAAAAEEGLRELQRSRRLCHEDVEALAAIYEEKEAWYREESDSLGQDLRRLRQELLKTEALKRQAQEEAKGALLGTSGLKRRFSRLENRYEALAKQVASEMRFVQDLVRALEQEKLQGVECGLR
Sequence of UniProt O14936 (whole entry, looked up): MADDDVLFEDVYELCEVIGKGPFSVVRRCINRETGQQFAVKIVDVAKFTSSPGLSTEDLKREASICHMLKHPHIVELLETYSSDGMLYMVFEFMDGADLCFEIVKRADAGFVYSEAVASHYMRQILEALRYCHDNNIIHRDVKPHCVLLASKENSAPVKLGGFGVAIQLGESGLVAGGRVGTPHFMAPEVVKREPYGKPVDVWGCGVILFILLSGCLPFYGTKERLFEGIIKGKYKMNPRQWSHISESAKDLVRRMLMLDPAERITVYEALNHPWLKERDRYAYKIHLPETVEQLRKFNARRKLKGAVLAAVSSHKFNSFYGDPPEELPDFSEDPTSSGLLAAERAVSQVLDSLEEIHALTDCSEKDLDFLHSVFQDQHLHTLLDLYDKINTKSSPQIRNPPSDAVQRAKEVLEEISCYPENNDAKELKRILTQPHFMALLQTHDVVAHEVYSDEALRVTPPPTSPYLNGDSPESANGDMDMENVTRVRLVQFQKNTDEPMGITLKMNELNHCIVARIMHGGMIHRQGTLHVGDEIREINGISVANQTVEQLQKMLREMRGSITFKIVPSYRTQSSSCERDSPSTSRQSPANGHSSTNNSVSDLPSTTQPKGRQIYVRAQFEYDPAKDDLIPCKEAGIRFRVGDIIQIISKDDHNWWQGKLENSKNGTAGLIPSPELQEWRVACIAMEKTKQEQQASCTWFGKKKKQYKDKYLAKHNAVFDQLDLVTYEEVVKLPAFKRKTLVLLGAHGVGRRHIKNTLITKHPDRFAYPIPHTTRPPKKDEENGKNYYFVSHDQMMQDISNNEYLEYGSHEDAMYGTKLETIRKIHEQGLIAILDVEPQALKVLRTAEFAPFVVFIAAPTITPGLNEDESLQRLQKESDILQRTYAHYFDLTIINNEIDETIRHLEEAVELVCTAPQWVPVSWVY
Sequence of UniProt Q04759 (whole entry, looked up): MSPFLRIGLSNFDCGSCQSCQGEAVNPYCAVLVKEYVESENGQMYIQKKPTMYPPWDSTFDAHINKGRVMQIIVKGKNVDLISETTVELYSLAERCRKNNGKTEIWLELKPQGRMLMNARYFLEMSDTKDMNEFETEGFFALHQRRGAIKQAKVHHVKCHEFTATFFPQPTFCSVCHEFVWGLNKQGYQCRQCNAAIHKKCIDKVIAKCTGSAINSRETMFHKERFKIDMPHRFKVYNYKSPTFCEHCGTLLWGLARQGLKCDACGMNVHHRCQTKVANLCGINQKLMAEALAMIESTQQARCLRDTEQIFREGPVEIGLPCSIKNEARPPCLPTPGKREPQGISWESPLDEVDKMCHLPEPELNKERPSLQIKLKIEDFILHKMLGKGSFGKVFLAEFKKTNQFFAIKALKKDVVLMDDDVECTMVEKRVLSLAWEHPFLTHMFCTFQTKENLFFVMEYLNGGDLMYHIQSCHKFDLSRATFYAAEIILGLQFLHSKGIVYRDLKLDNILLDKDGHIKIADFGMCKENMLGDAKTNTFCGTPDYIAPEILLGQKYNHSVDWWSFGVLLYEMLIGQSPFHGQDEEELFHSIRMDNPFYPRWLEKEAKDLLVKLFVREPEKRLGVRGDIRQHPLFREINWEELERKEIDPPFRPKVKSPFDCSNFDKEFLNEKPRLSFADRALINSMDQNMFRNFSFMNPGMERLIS

Study 1
Target: Aurora kinase C (AURKC, Homo sapiens, UniProt Q9UQB9)
Effect on: enzyme activity
Action: inhibitor
Tested at: 0.5 µM
Reference: control
Quantity: remaining activity
Residues (Q9UQB9 1-309): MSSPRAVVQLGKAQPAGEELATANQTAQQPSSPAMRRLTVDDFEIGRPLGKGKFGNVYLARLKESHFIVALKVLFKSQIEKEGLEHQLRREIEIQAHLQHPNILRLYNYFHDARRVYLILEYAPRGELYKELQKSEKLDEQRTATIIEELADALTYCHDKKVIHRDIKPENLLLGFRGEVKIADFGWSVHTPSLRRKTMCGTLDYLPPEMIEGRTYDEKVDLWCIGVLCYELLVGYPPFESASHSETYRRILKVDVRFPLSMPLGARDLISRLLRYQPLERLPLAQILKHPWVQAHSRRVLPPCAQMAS
COc1cc2ncnc(Nc3ccc(O)c(Br)c3)c2cc1OC: 83.7%
COc1cc2ncnc(Nc3cccc(Cl)c3)c2cc1OC: 85.8%
c1ccc(-c2cnc(Nc3ccc(OCCN4CCCC4)cc3)s2)cc1: 94.9%
Cn1nc2c3c(cccc31)C(=O)c1ccccc1-2: 89.3%
CN(C)C[C@H]1CCn2c(c(C3=C(c4cn(C)c5ccccc45)C(=O)NC3=O)c3ccccc32)C1: 93.1%
N#Cc1c(NC(=O)c2cccc3ccccc23)sc2c1CCCC2: 95%
CCOc1nc(NC(=O)Cc2cc(OC)ccc2OC)cc(N)c1C#N: 97.4%
N#C/C(=C\c1ccc(O)c(O)c1)C(=O)NCc1ccccc1: 95.5%
CCN(CC)C(=O)c1ccc(Nc2nc(OCC3CCCCC3)c3[nH]cnc3n2)cc1: 20.7%
Cc1cn(-c2cc(NC(=O)c3ccc(C)c(Nc4nccc(-c5cccnc5)n4)c3)cc(C(F)(F)F)c2)cn1: 87.2%
Ic1cccc(CSc2nnc(-c3ccncc3)o2)c1: 91.2%
O=C(NC(NC(=S)Nc1ccc(F)c([N+](=O)[O-])c1)C(Cl)(Cl)Cl)C(c1ccccc1)c1ccccc1 (centres unmarked): 93.8%
CN([C@@H](Cc1ccc(OS(=O)(=O)c2cccc3cnccc23)cc1)C(=O)N1CCN(c2ccccc2)CC1)S(=O)(=O)c1cccc2cnccc12: 98.2%
Cc1nc2cc3nc(-c4cccs4)cnc3cc2n1C: 93.3%
O=C(Nc1cccc(Nc2nccc(Nc3cccc(C(F)(F)F)c3)n2)c1)C1CC1: 80.8%
O=C1c2ccccc2-c2n[nH]c3cccc1c23: 41.2%
COc1cc2c(cc1OC)-c1[nH]nc(Nc3cccc(F)c3)c1C2: 94.5%
CCN(CC)CCNC(=O)c1c(C)[nH]c(/C=C2\C(=O)Nc3ccc(F)cc32)c1C: 72.8%
O=C1C(Cl)=C(N2C(=O)CCC2=O)C(=O)c2ccccc21: 97.9%
c1ccc(-c2[nH]ncc2-c2ccnc3ccccc23)nc1: 100%
Nc1cccc(-c2cc3c(Oc4cccc(O)c4)ncnc3[nH]2)c1: 77.7%
Cc1cc2ncc(-c3ccccc3)nc2cc1C: 92.1%
C[C@@H]1CCN(C(=O)CC#N)C[C@@H]1N(C)c1ncnc2[nH]ccc12: 85.3%

Study 2
Cell line: Huh-7
Tested at: 10 µM
Time: 24 h
Quantity: viability
CN(C)CCCN1c2ccccc2Sc2ccccc21: 101%
Nc1ccc(C(=O)Oc2ccccc2)c(O)c1: 102%
CC(O)(P(=O)(O)O)P(=O)(O)O: 104%
CCCNC(=O)NS(=O)(=O)c1ccc(Cl)cc1: 103%
CCN(Cc1ccncc1)C(=O)C(CO)c1ccccc1 (centres unmarked): 101%
CC[C@@H]1C(=O)OC[C@@H]1Cc1cncn1C: 101%
CO/N=C(\C(=O)N[C@@H]1C(=O)N2C(C(=O)O)=C(COC(C)=O)CS[C@H]12)c1csc(N)n1: 104%
CCCN(CCC)S(=O)(=O)c1ccc(C(=O)O)cc1: 101%
O=C(c1ccccc1)c1ccc2n1CCC2C(=O)O (centres unmarked): 99.4%
Cc1nc2sccn2c(=O)c1CCN1CCC(=C(c2ccc(F)cc2)c2ccc(F)cc2)CC1: 97.1%
CN(C)CCOC(c1ccc(Cl)cc1)c1ccccn1 (centres unmarked): 102%
CN1CCOC(c2ccccc2)c2ccccc2C1 (centres unmarked): 99.8%
O=C(CCNNC(=O)c1ccncc1)NCc1ccccc1: 100%
CCCCCC(C)N (centres unmarked): 103%
CNCCc1ccccn1: 104%
COc1ccc2c(c1)c(CC(=O)O)c(C)n2C(=O)c1ccc(Cl)cc1: 95.6%
COC(=O)C1=C(C)NC(C)=C(C(=O)OCC(C)C)C1c1ccccc1[N+](=O)[O-] (centres unmarked): 85%
CC(=O)N[C@@H](CS)C(=O)O: 101%

Study 3
Cell line: normal organoid sample E
Technique: CellTiter-Glo
Host: human
Sample: normal-adjacent epithelium
Tested at: 0.1 µM
Reference: DMSO
Quantity: viability
Cc1c[nH]c2nccc(Oc3c(F)cc(Nc4cc(Cl)nc(N)n4)cc3F)c12: 121% and 143%
CC(C)CC(=O)N1CCc2nc(-c3ccc(Br)cc3)nc(N(C)Cc3ccccc3)c2C1: 148% and 172%
COCCOc1nc(-c2ccc(Cl)nc2)nc2c1CN(C(=O)c1ncn3ccccc13)CC2: 136% and 126%
COc1ccc2cc(OCC3(C(=O)O)CN(C(=O)c4ccc(F)cc4)C3)ccc2c1: 114% and 111%
O=C(c1ccc(F)cc1)N1CC(COc2ccc(Br)cc2)(C(=O)O)C1: 92.3% and 101%
CS(=O)(=O)NCC[C@H](NC(=O)c1cncc2c1cnn2-c1ccc(F)cc1)c1ccnc(S(C)(=O)=O)c1: 200% and 105%
O=C(Nc1ccc(Oc2ccc(F)cc2)cc1)N1CCc2ncccc2[C@H]1c1ccc(F)cc1: 127% and 140%

Study 4
Structure (SMILES): Cc1ccc(NC(=O)c2ccnc(C(F)(F)F)c2)cc1-c1cc(OCCO)nc(N2CCOCC2)c1
Tested at: 1 µM
Quantity: remaining binding
MAP kinase-interacting serine/threonine-protein kinase 1 (MKNK1, Homo sapiens, UniProt Q9BUB5); competitive binding panel; reference: vehicle: 85%
Serine/threonine-protein kinase Nek10 (NEK10, Homo sapiens, UniProt Q6ZWH5); competitive binding panel; reference: vehicle: 98%
Activin receptor type-2B (ACVR2B, Homo sapiens, UniProt Q13705); competitive binding panel; reference: vehicle: 87%
Serine/threonine-protein kinase Sgk1 (SGK1, Homo sapiens, UniProt O00141); competitive binding; SGK: 97%
Peripheral plasma membrane protein CASK (CASK, Homo sapiens, UniProt O14936); competitive binding panel; reference: vehicle: 77%
Death-associated protein kinase 3 (DAPK3, Homo sapiens, UniProt O43293); competitive binding panel; reference: vehicle: 100%
Mitogen-activated protein kinase kinase kinase 7 (MAP3K7, Homo sapiens, UniProt O43318); competitive binding panel, measured: TAK1; reference: vehicle: 96%
Serine/threonine-protein kinase DCLK1 (DCLK1, Homo sapiens, UniProt O15075); competitive binding panel, measured: DCAMKL1; reference: vehicle: 96%
Tyrosine-protein kinase CSK (CSK, Homo sapiens, UniProt P41240); competitive binding panel; reference: vehicle: 95%
Protein kinase C theta type (PRKCQ, Homo sapiens, UniProt Q04759); competitive binding panel; reference: vehicle: 99%
Serine/threonine-protein kinase TAO1 (TAOK1, Homo sapiens, UniProt Q7L7X3); competitive binding panel; reference: vehicle: 95%

Repeated from above (study 4):
Activin receptor type-2B (ACVR2B, Homo sapiens, UniProt Q13705); competitive binding panel; reference: vehicle: 87%
Serine/threonine-protein kinase Sgk1 (SGK1, Homo sapiens, UniProt O00141); competitive binding; SGK: 97%
Peripheral plasma membrane protein CASK (CASK, Homo sapiens, UniProt O14936); competitive binding panel; reference: vehicle: 77%
Death-associated protein kinase 3 (DAPK3, Homo sapiens, UniProt O43293); competitive binding panel; reference: vehicle: 100%
Mitogen-activated protein kinase kinase kinase 7 (MAP3K7, Homo sapiens, UniProt O43318); competitive binding panel, measured: TAK1; reference: vehicle: 96%
Serine/threonine-protein kinase DCLK1 (DCLK1, Homo sapiens, UniProt O15075); competitive binding panel, measured: DCAMKL1; reference: vehicle: 96%
Tyrosine-protein kinase CSK (CSK, Homo sapiens, UniProt P41240); competitive binding panel; reference: vehicle: 95%
Protein kinase C theta type (PRKCQ, Homo sapiens, UniProt Q04759); competitive binding panel; reference: vehicle: 99%
Serine/threonine-protein kinase TAO1 (TAOK1, Homo sapiens, UniProt Q7L7X3); competitive binding panel; reference: vehicle: 95%
